Measurements of several laboratories.
Each numbered part is a random draw from the data of one study; scales do not carry over between parts. Substitutions count along the parent as printed.

Block 1 — technique: protein-binding microarray; form: double-stranded DNA, one strand shown; medium: in vitro; concentration: 250 nM; notes: 60-bp whole probe; together with: salmon DNA 0.4 mg/ml; baseline: random background probes; direction: higher = stronger binding; shared flanks, not repeated: GCCTAGCAC … GTCTTGATTCGCTTGACGCTGCTG
Target: Interferon regulatory factor 7, full length, phosphomimetic (IRF7, Homo sapiens, UniProt Q92985, residues 1-503, S101K/S471D/S472D/S475D/S476D/S477D/S483D/S484D/S487D)
Target sequence (chain): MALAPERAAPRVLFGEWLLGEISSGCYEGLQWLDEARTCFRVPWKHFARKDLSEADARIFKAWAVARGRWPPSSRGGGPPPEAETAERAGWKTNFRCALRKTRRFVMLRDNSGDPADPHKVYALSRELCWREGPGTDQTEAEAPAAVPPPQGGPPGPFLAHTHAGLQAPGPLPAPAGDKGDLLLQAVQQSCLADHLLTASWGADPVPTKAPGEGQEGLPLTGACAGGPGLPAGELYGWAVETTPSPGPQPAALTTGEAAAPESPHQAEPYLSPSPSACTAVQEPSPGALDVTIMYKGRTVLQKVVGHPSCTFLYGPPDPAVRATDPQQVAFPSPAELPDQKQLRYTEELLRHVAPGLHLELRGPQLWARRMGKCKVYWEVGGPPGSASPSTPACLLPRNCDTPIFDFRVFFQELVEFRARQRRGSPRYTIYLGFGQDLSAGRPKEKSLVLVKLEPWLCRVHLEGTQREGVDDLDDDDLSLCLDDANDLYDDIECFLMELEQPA
Strand | log fluorescence
TGGGCTCTAGGTTCTCTGAAGGTGCTA | -0.23 z-score
TTAGATATCAGTATCAATTAGTGCTAG | 0.0633 z-score
GACGGACTGGGTATAGGGACGTGCTAG | -0.529 z-score
GACGATCTCACTTTCGAGACGTGCTAG | 1.02 z-score
GAGGGTCTCGGTTTCGGGACGTGCTAG | 6.6 z-score
GACGGTCTCGGTCTCGAGACGTGCTAG | 1.32 z-score
GACGGTTTCGGGTATCGCGACGTGCTA | 7.12 z-score
TTAGGTTTAGACTTTCGGTTAGTGCTA | 1.09 z-score
TTAGGTATTGACTTTCGGTTAGTGCTA | 1.46 z-score
TTAGGCTCCGGTTTCGGTTAGTGCTAG | 8.63 z-score
GACGGTTTCCTATTCCTGACGTGCTAG | 3.7 z-score
TTACGACTGCTTATCCTTTAGTGCTAG | -0.243 z-score
GACGAACTGAGGCTGGAGACGTGCTAG | -0.682 z-score
TCAACTTTCTATCTCTGACTGTGCTAG | 1.01 z-score
TTAGGACTGCTTATCTTTTAGTGCTAG | -0.193 z-score
GACGAACTGAGTTTCGAGAGGTGCTAG | 1.68 z-score
GACGGTTTCGACTATCGGCACGTGCTA | 5.36 z-score
GTAGGTATCCTACTGCTTTAGTGCTAG | -0.275 z-score
TTAGTTCTGAGTCTTCCCTTGTGCTAG | 0.506 z-score

Block 2 — technique: DHFR PCA, deep sequencing; medium: yeast; together with: (+)-ABA 17 µM; baseline: wild-type fitted maximum; direction: higher = stronger binding
Target: ABI1, truncated, D143A, DHFR fusion (Arabidopsis thaliana)
Notes: methotrexate growth selection, single substitutions
Parent: PYL1, truncated, DHFR fusion (Arabidopsis thaliana); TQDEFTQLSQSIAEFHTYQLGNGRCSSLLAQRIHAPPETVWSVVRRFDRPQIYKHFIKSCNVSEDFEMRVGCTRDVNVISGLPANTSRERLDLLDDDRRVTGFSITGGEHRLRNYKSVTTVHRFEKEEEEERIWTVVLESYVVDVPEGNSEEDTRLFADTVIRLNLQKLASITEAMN; partner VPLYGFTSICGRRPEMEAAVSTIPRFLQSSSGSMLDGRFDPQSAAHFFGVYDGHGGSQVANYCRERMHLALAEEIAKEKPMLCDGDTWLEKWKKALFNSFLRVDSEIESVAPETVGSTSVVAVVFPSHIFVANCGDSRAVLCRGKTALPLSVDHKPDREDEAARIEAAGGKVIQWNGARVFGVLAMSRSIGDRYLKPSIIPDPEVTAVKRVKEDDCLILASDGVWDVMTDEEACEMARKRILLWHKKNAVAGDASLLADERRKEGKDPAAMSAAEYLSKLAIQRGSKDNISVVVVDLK
Substitution | relative binding score [%]
F66W | 77
L82T | 1.95
N149G | 33.9
K58P | -7.73
L28P | -19.8
S26W | 61.9
S63I | 75.4
I12R | 29.4
T1F | 81
S59P | 8.49
S59Y | 47.9
N61C | 89.8
A30W | 80.3
S140C | -4.03

Block 3 — technique: Sort-seq; refers to: YFP reporter; medium: E. coli; notes: PhoQ-PhoP variant library; together with: 10 µM Mg2+; baseline: high Mg2+ state; direction: higher = stronger signaling
Molecule: PhoQ, residues 284 288 289 292 302 303 SSTMSV
target | fold induction
PhoP, residues 12 14 15 18 19 TPWTL (Escherichia coli, UniProt P23836) | 1.03
PhoP, residues 12 14 15 18 19 LHHYF (Escherichia coli, UniProt P23836) | 15.6
PhoP, residues 12 14 15 18 19 NFFVT (Escherichia coli, UniProt P23836) | 5.8
PhoP, residues 12 14 15 18 19 VGHWL (Escherichia coli, UniProt P23836) | 5.99

Block 4 — technique: RNA Bind-n-Seq; form: RNA; medium: in vitro; concentration: 365 nM; baseline: no-protein control; direction: higher = stronger binding
Target: RNA binding protein fox-1 homolog 2, RRM domain, GST-SBP tag (RBFOX2, Homo sapiens, UniProt O43251-10, residues 100-194)
Notes: natural RNA segment, single round, ends assumed
Shared flanks, not repeated: GGGAGUUCUACAGUCCGACGAUC … UGGAAUUCUCGGGUGCCAA
Strand | RBNS enrichment (R)
AUGUUAUUGGUGUCUUCACUGGAUGUAUUUGACUGCUGUGGACUUGAGUUGGGAGGGGAAUGUUCCCACUCAGAUCCUGACAGGGAAGAGGAGGAGAUGAGAGACUCUGG | 6.36
GCAUUUUUGGGAGUGUAUCUAUAGCCUGUUCUACUUUGUUAAUGGGGGAUAACAGCACAUCCUAGAUCAUGUGUGAACUUUGGGGUUUUUAAUUGCCCUUGGUAUCCUGA | 0.487
CCUUCCCGGCCCAACCUGAGGGAUGUGGAUUUGGGACUGUCUGGGGGCCCCUCCUGCAGCGAGGAUGGGAGGGGGUGCUGAGCUGUGAAUCCCCUGGGCAGGGGGCGACA | 0.696
AUAAAAUUGCCAUCAUUCUAUUUUUAUCCAAAAGUAUAAAUUUUGCUUUGGCAUGAAAAGUGGUCCUCUUGACUGCAUUAUGCAUGCGAGGAUGAAAUAAACCUAGAAGU | 7.54
CAGUGAUGGAGAAUCACUGUUGAUUGAGAUUUUGGUUUCCAUGUGAUUUGUUUUCUUCAAUAGUCUUAUUUUCAGUCUCUCAAAUACAGCCAACUUAAAGUUUUAGUUUG | 0.428
CGCUGGGUUUUCAGACCCCAUGUUGUUGGUCAAUGAAAUAAAGCAUCUUACAGAAGGUGUUAACUGUUUUCUGUAGCCACAGCCUCAGUUCCUUUCCACAGUGCACCCAA | 0.383
CAAGGGCAACUCACGGGUGCAUGAAACCACUGGAACAUGGCCGUCGCUGUGGGGGUUUUUUUCUCUGGGGUUCCCCUGGAAAGGCUGCAGGAACUAGGCACAAGCUCUCU | 0.894
GAUACAUAGUGUAGAACAGGAAUUUGCAGAAGCCAUUUAAGUUAUCUUUUGAGGUAAGCUCUGAUUUAGCAUUUAUUCUGAUAAAAUCUAAUACAUCAUGGGAUAUAUAU | 0.742

Some of these lines once more (block 1):
Strand | log fluorescence
GACGGTCTCGGTCTCGAGACGTGCTAG | 1.32 z-score
GACGGTTTCGGGTATCGCGACGTGCTA | 7.12 z-score
TTAGGTTTAGACTTTCGGTTAGTGCTA | 1.09 z-score
TTAGGTATTGACTTTCGGTTAGTGCTA | 1.46 z-score
TTAGGCTCCGGTTTCGGTTAGTGCTAG | 8.63 z-score
GACGGTTTCCTATTCCTGACGTGCTAG | 3.7 z-score
TTACGACTGCTTATCCTTTAGTGCTAG | -0.243 z-score
